Measurements from different studies.
Each numbered part is a random draw from the data of one study; scales do not carry over between parts. “And” joins repeats or separate records; there may be more than shown. Positions count from the first letter of the parent shown.
Sequence of UniProt Q13283 (320-435, looked up): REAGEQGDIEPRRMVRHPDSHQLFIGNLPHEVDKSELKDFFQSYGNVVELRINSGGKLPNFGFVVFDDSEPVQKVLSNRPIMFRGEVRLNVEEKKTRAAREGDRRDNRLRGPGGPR

Study 1
Target: ABI1, truncated, D143A, DHFR fusion (Arabidopsis thaliana, UniProt P49597)
Technique: DHFR PCA, dose-response
Matrix: yeast
Notes: Hill fit, mean, not affinity
Together with: (+)-ABA, dose series
Direction: lower = more sensitive
Starting sequence: PYL1, truncated, DHFR fusion (Arabidopsis thaliana, UniProt Q8VZS8); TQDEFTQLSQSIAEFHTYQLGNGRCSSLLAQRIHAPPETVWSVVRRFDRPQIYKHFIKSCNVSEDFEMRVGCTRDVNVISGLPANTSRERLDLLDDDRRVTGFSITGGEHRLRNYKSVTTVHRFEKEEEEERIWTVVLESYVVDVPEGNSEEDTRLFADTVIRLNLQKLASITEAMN
Substitution	ABA EC50 [µM]
K168S	0.734
I33C	7.51
S26I	41.3
T173L	16
K116Q	6.25
T86Y	0.946
V100G	449
L164M	0.655

Study 2
Target: Histone acetyltransferase KAT6A, winged helix 1, GST fusion (KAT6A, Homo sapiens, UniProt Q92794, residues 1-85)
Technique: protein binding microarray
Form: double-stranded DNA, one strand shown
Matrix: in vitro
Concentration: not given
Notes: 8-mer, flanks averaged, mean of 2 arrays, mostly near background
Baseline: not given
Direction: higher = stronger binding
Residues (chain): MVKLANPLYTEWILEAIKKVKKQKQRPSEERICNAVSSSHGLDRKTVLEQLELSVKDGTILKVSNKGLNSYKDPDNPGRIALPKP
Oligonucleotide	E-score
TGCCTTAA	-0.19
GAAAGGTC	-0.0795
ATCATGAT	-0.179
CAGCCTGA	-0.192
ACGGCAAG	0.286
AACATACT	-0.037
CCAATAAA	-0.0903
GCCCAAGC	0.102

Mixed results
P1: PafA, mature enzyme, eGFP fusion (Elizabethkingia meningoseptica, UniProt Q9KJX5); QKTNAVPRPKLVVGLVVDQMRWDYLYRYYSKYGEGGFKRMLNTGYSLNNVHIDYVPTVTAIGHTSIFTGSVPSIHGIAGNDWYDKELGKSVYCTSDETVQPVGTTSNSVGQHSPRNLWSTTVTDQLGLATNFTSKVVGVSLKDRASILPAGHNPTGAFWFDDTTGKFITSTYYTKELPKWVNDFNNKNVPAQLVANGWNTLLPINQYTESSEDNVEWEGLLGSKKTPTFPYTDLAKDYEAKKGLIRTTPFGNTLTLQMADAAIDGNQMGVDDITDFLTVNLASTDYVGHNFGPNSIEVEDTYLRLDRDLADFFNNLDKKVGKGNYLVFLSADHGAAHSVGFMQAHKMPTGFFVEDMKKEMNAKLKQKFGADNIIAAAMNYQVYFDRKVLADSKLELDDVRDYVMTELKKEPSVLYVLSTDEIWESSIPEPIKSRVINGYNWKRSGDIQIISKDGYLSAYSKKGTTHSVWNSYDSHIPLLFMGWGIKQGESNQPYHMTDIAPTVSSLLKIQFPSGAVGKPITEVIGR
Molecule	target	test	test system	setting	how to read	measurement	value
CNC(=O)c1ccc(-c2cnn3ccc(C(=O)N(C)c4ccc(Cl)c(C(=O)O)c4)cc23)cc1	Androgen receptor (AR, Homo sapiens, UniProt P10275)	cell-free assay				IC50	> 30 µM
P1 L177V	vanadate, free oxyanion	microfluidic competitive inhibition	in vitro, cell-free expressed	not given, derived from inhibition constants, unchanged parent 676 nM	lower = stronger binding	oxyanion analog dissociation constant	0.578 µM
AAAAAAAA (biotin)	Ras GTPase-activating protein-binding protein 1, RRM domain (G3BP1, Homo sapiens, UniProt Q13283, residues 320-435)	protein domain microarray	RNA, in vitro	not given, poly(A) 8-mer RNA, whole probe, immobilized GST-fusion domains, most near background	baseline: GST loading signal, higher = stronger binding	signal ratio	0.0368
PhoQ, residues 284 288 289 292 302 303 AANNSF	PhoP, residues 12 14 15 18 19 LWHSL (Escherichia coli, UniProt P23836)	Sort-seq, item: YFP reporter	E. coli	PhoQ-PhoP variant library, together with: 10 µM Mg2+	baseline: high Mg2+ state, higher = stronger signaling	fold induction	18 and 8.15

Some of these lines once more (study 1):
Substitution	ABA EC50 [µM]
T173L	16
V100G	449
